# Measurements gathered from unrelated publications.
# Each line is one published result; not all experiments were run side by side. “And” joins repeats or separate records; there may be more than shown.
# Target: MAP kinase-interacting serine/threonine-protein kinase 1 (MKNK1, Homo sapiens, UniProt Q9BUB5)
SMILES,test,conditions,how to read,measurement,result
COc1cc(Nc2nccc(-c3cnn4nc(OC)ccc34)n2)cc(C(F)(F)F)c1,"binding, competition with immobilised ligand",1 µM,,remaining binding,87%
CC(C)=CC1OC(C)(C)C2C=C3C(=O)C(Cl)=CC(O)C3C3C(O)C4OC4C(=O)C132 (stereo not drawn),"cell-free assay, competition with immobilised ligand",10 µM,,remaining binding,100%
COc1c(Cl)cccc1Nc1c(-c2ccncc2C#C[C@@]2(C)CCCN2C(=O)/C=C/CN(C)C)[nH]c2c1C(=O)NCC2,"binding, competition with immobilised ligand",3 µM,,remaining binding,61%
Cc1ccc(C)c(-c2ccc3nc(NC(=O)C4CCCCC4)nn3c2)c1,"enzyme activity, Dundee kinase panel",10 µM,,remaining activity,79%
C=CC(=O)Nc1cccc(-c2cnc3[nH]cc(C(=O)NC(C)(C)C)c3n2)c1,kinase activity,0.1 µM,,inhibition,6% and 10%
Cc1ccc(-c2c[nH]nc2C(=O)NC2CC2)cc1,"cell-free assay, competition with immobilised ligand",10 µM,,remaining binding,13%
C=CC(=O)N1Cc2nc(-c3cc(-c4cc(Cl)cnc4Cl)c(F)cc3F)n(-c3ccncn3)c2C1,"cell-free assay, inhibitor",1 µM,,inhibition,5%
Cc1ccc(-c2c(/C=C(\C#N)C(=O)NC(C)C)n(CCCO)c3ncnc(N)c23)cc1,"cell-free assay, competition with immobilised ligand",1 µM,,remaining binding,73%
CN1CCN(Cc2ccc(NC(=O)c3cccc(C#Cc4cnc(N)c5ncccc45)c3)cc2C(F)(F)F)CC1,"cell-free assay, competition with immobilised ligand",50 nM,,remaining binding,40%
NC(=O)[C@@H](O)C[C@H]1CCc2sc3ncnc(O[C@H]4CC[C@H](N5CCOCC5)CC4)c3c21,"enzyme activity, inhibitor",10 µM,,inhibition,-1%
Cc1cccc(O[C@H]2CCC[C@@H](C(C)CNCc3ccncc3)C2)c1 (relative stereo),"enzyme activity, inhibitor",1 µM,,inhibition,3%
Cc1cccc(-c2ccc3nc(NC(=O)C4CCOCC4)nn3c2)c1,"enzyme activity, Dundee kinase panel",10 µM,,remaining activity,84%
CNC1C[S+]2CC[S+]3CC[S+](C1)[Ru-4]321([N]=C=S)[n]2c3ccc(OC)cc3c3c4c(c5cc(F)c[n+]1c5c32)C(=O)NC4=O (stereo not drawn),KinomeScan,0.1 µM,relative to: untreated,remaining binding,77%
CCN1CCN(Cc2ccc(C(=O)Nc3ccc(C)c(NCc4cnc5[nH]ccc5c4OC)c3)cc2C(F)(F)F)CC1,"binding, competition with immobilised ligand",1 µM,,remaining binding,51%
Nc1ncc2c(n1)-c1c([nH]c3ccc(C4=CCOCC4)cc13)CCC2,"binding, competition with immobilised ligand",1 µM,,remaining binding,100%
Nc1nc(Nc2ccccc2)sc1C(=O)c1ccccc1,"enzyme activity, inhibitor",10 µM,,remaining activity,71%
C[C@H]1CN(C(=O)c2cn(-c3ccnc(N)n3)c3cc(C#CC4(O)CCCCC4)ccc23)CCN1,"enzyme activity, inhibitor, FRET",1 µM,,inhibition,2%
O=C(Cc1ccc(OCc2ccccc2)cc1)NC1(C(=O)O)CCN(C(=O)c2ccc(-c3cccc(Cl)c3)cc2)CC1,"enzyme activity, inhibitor",10 µM,,activity vs control,132%

# Some of these lines once more:
SMILES,test,conditions,how to read,measurement,result
Cc1ccc(-c2c[nH]nc2C(=O)NC2CC2)cc1,"cell-free assay, competition with immobilised ligand",10 µM,,remaining binding,13%
C=CC(=O)N1Cc2nc(-c3cc(-c4cc(Cl)cnc4Cl)c(F)cc3F)n(-c3ccncn3)c2C1,"cell-free assay, inhibitor",1 µM,,inhibition,5%
Cc1ccc(-c2c(/C=C(\C#N)C(=O)NC(C)C)n(CCCO)c3ncnc(N)c23)cc1,"cell-free assay, competition with immobilised ligand",1 µM,,remaining binding,73%
